Results gathered from unrelated publications.
Each line is one published result; not all experiments were run side by side.
Target: Calcium-dependent protein kinase 1 (CDPK1, Plasmodium falciparum, UniProt P62344)

Compound | test | setting | how to read | measurement | value
CNC1C[S+]2CC[S+]3CC[S+](C1)[Ru-4]321([N]=C=S)[n]2c3ccc(OC)cc3c3c4c(c5cc(F)c[n+]1c5c32)C(=O)NC4=O (centres unmarked) | KinomeScan | 0.1 µM | reference: control | binding | 100%
CC(C)=CC1OC(C)(C)C2C=C3C(=O)C(Cl)=CC(O)C3C3C(O)C4OC4C(=O)C132 (centres unmarked) | cell-free assay, competition with immobilised ligand | 10 µM |  | remaining binding | 81%
Cc1ccc(-c2c(/C=C(\C#N)C(=O)NC(C)C)n(CCCO)c3ncnc(N)c23)cc1 | cell-free assay, competition with immobilised ligand | 1 µM |  | remaining binding | 68%
Cc1cnc2nc1Nc1cccc(c1)COC/C=C/COCc1cc(ccc1OCCN1CCOCC1)N2 | binding | 0.1 µM |  | remaining binding | 84%
C=CC(=O)N1CCCC(n2c(=O)c3ncccc3n(Cc3ccc(Oc4ccccc4)cc3)c2=O)C1 (centres unmarked) | cell-free assay, competition with immobilised ligand | 1 µM |  | remaining binding | 60%
CNC(=O)C1CCN(c2cc(C)c(F)cc2NC(=O)c2ccc(-c3cc(O)ccc3C)c(C)c2)CC1 | binding, competition with immobilised ligand | 1 µM |  | remaining binding | 100%
Nc1ncc2c(n1)-c1c([nH]c3ccc(C4=CCOCC4)cc13)CCC2 | binding, competition with immobilised ligand | 1 µM |  | remaining binding | 91%
COc1c(Cl)cccc1Nc1c(-c2ccncc2C#C[C@@]2(C)CCCN2C(=O)/C=C/CN(C)C)[nH]c2c1C(=O)NCC2 | cell-free assay, competition with immobilised ligand | 3 µM |  | remaining binding | 26%
C=CC(=O)N1CCc2ccc(-n3c(=O)ccc4cnc5ccc(-c6cnn(C)c6)cc5c43)cc21 | KINOMEscan | 1 µM | reference: control | remaining binding | 100%
COc1cc(Nc2nccc(-c3cnn4nc(OC)ccc34)n2)cc(C(F)(F)F)c1 | binding, competition with immobilised ligand | 1 µM |  | remaining binding | 80%
CCN1CCN(Cc2ccc(C(=O)Nc3ccc(C)c(NCc4cnc5[nH]ccc5c4OC)c3)cc2C(F)(F)F)CC1 | binding, competition with immobilised ligand | 1 µM |  | remaining binding | 2.6%

A few entries again:
Compound | test | setting | how to read | measurement | value
CC(C)=CC1OC(C)(C)C2C=C3C(=O)C(Cl)=CC(O)C3C3C(O)C4OC4C(=O)C132 (centres unmarked) | cell-free assay, competition with immobilised ligand | 10 µM |  | remaining binding | 81%
